Measurements gathered from unrelated publications.
Lines come from different studies, so protocols differ. “And” joins repeats or separate records; there may be more than shown. Numbers after ± are the reported error.

NC(=O)N/N=C/c1ccc(OCc2ccccc2)cc1 — glutathione peroxidase activity (OD450) (IMR-32; refers to: GPX3; 400 µg/mL, 24 h; higher = more activity): 0.298 a.u.
O=C(C[Se]C(=O)c1ccco1)Nc1cccc(C(F)(F)F)c1 — TGI (NCI60 breast subpanel mean; cell growth): 20.6 µM
CC(C)C[C@H](NC(=O)[C@@H]1CCCN1C(=O)[C@H](CCCCN)NC(=O)[C@@H](N)CO)C(=O)N1CCC[C@H]1C(=O)N[C@@H](CCC(=O)O)C(=O)N[C@H](C(=O)N[C@H](C(=O)N[C@@H](CC(=O)O)C(=O)N[C@@H](CCC(=O)O)C(=O)N[C@@H](Cc1ccc(O)cc1)C(=O)NCC(=O)NCCOCCOCCOCCOCCOCCOCCOCCOCCOCCOCCOCCOCCOCCOCCOCCOCCOCCOCCOCCOCCOCCOCCOCCOCCC(=O)N[C@@H](CCCCNC(=O)CC[C@H](C(=O)O)N1CCN(CC(=O)O)CCN(CC(=O)O)CC1)C(=O)N1CCN(CCCN(C)c2ccc3nccc(C(=O)NCC(=O)N4CC(F)(F)C[C@H]4C#N)c3c2)CC1)[C@@H](C)O)C(C)C — EC50 (HT-1080 expressing human FAP; T cell-mediated target cell lysis, luciferase cytotoxicity; 16 h, with: human donor T cells, E:T 5:1): 0.0212 nM
[Cl-].[Cl-].[Ru+2].c1ccc(-c2ccccn2)nc1.c1ccc(-c2ccccn2)nc1.c1ccc2cc3nc4c5cccnc5c5ncccc5c4nc3cc2c1 — phototoxicity index (SK-MEL-28; 1% O2, with: blue light 453 nm, 100 J/cm2; baseline: dark over light EC50): 1
O=C(C[Se]C(=O)c1ccccc1Nc1ccccc1)Nc1cccc(C(F)(F)F)c1 — CC50 (NCI60 renal subpanel; cytotoxicity, inhibitor; five-dose): 6.48 µM
CC(C)CC(O)(CC(C)C)c1cn(C(=O)N2CCCC2)nn1 — protein level (mouse T-cells; SILAC proteomics, refers to: ARHGEF2; 1 nM, 6 h, unit not given; baseline: DMSO): 1.08
CC(C)Cc1ccc(C(C)C(=O)[Se]CC(=O)Nc2cccc(C(F)(F)F)c2)cc1 (stereo not shown) — CC50 (NCI60 ovarian subpanel; cytotoxicity, inhibitor; five-dose): 9.56 µM
CC(C)C[C@H](NC(=O)[C@H](CC(=O)O)NC(=O)CNC(=O)[C@@H](N)CCCNC(=N)N)C(=O)N[C@@H](C)C(=O)N[C@H](C(=O)N[C@@H](CC(C)C)C(=O)N[C@@H](CCCNC(=N)N)C(=O)N[C@@H](CCC(N)=O)C(=O)N[C@@H](CC(C)C)C(=O)N[C@@H](C)C(=O)N[C@@H](CCC(N)=O)C(=O)N[C@@H](CCC(=O)O)C(=O)N[C@@H](CC(=O)O)C(=O)NCC(=O)N[C@H](C(=O)N[C@H](C(=O)NCC(=O)N[C@H](C(=O)N[C@@H](CCCNC(=N)N)C(=O)NCCOCCOCCOCCOCCOCCOCCOCCOCCOCCOCCOCCOCCC(=O)N[C@@H](CS)C(N)=O)C(C)C)C(C)C)C(C)C)[C@@H](C)O — selectivity ratio (H1650 lung adenocarcinoma; cell binding, phage binding, refers to: output/input phage; 10 min, 37 °C; baseline: control phage): 15 ± 5.5
CC1OC2OC3C4=C(OC3(C)C12O)C(=O)c1c(O)cccc1C4=O (stereo not shown) — growth percent (PC-3; SRB; 10 µg/mL, 48 h; negative values mean cell killing): -76.4%
O=C(C[Se]C(=O)c1cccs1)Nc1cccc(C(F)(F)F)c1 — mean growth percent (NCI60 leukemia subpanel; cell growth; 10 µM, 48 h, one-dose): -94.8%
Cc1cccc(-c2cccc(C)n2)n1.Cc1cccc(-c2cccc(C)n2)n1.F[P-](F)(F)(F)(F)F.F[P-](F)(F)(F)(F)F.[Ru+2].c1ccc2c(-c3nc4c5cccnc5c5ncccc5c4[nH]3)cccc2c1 — phototherapeutic index ratio (SK-MEL-28; resazurin; normoxia; baseline: blue over green light): 11 fold
CSCC[C@H](NC(=O)[C@@H](NC(=O)[C@H](CCC(N)=O)NC(=O)[C@H](CO)NC(=O)[C@@H](N)C(C)C)[C@@H](C)O)C(=O)N[C@@H](CCCNC(=N)N)C(=O)N[C@@H](CCC(N)=O)C(=O)N[C@H](C(=O)N[C@@H](C)C(=O)N[C@H](C(=O)N1CCC[C@H]1C(=O)N[C@@H](CC(C)C)C(=O)N[C@@H](CC(C)C)C(=O)N[C@@H](Cc1c[nH]c2ccccc12)C(=O)N[C@@H](Cc1ccccc1)C(=O)N[C@@H](Cc1c[nH]c2ccccc12)C(=O)N[C@H](C(=O)NCC(=O)N[C@@H](CO)C(=O)N[C@@H](CC(C)C)C(=O)NCCOCCOCCOCCOCCOCCOCCOCCOCCOCCOCCOCCOCCC(=O)N[C@@H](CS)C(N)=O)[C@@H](C)O)C(C)C)[C@@H](C)O — selectivity ratio (H1155 lung large cell carcinoma; cell binding, phage binding, refers to: output/input phage; 10 min, 37 °C; baseline: control phage): 3.3 ± 1.7
O=C(C[Se]C(=O)c1ccccc1)Nc1cccc(C(F)(F)F)c1 — mean TGI (NCI60 renal subpanel; total growth inhibition, inhibitor; five-dose): 5.05 µM
CCOC(=O)C1(Cc2ccccc2)Oc2cc(F)ccc2N(Cc2ccccc2)C1=O (stereo not shown) — inhibition (HEK293T; cytotoxicity, CCK-8; 6.25 µM, 72 h): 0.17 ± 0.32%
Cc1cc(Oc2nc(N3CC[C@@H](c4ccncc4)C3)ncc2F)[nH]n1 — IC50 (muscle cancer cell lines; cell proliferation; average over lines): 49 µM
N[C@H](C(=O)N1CCCC1)C1CCN(c2nccc3c(-c4ncc(Cl)cc4Cl)cccc23)CC1 — inhibition (human neutrophils; protein citrullination, inhibitor, flow cytometry, refers to: citrullinated histone H3; 3.16 µM, with: ionomycin): 79.3% and 80% and 81.1% and 83.1%
COc1ccccc1/C=C/[N+](=O)[O-] — MID synergy score (human PBMC; Bliss model; concentration not given; direction not given): 2.68
O=C(C[Se]C(=O)c1cccnc1Nc1cccc(C(F)(F)F)c1)Nc1cccc(C(F)(F)F)c1 — CC50 (NCI60 ovarian subpanel; cytotoxicity, inhibitor; five-dose): 8.95 µM
CC(C)[C@H](NC(=O)[C@H](CCCNC(=N)N)NC(=O)[C@@H]1CCCN1C(=O)[C@@H](NC(=O)[C@H](C)NC(=O)[C@H](Cc1ccc(O)cc1)NC(=O)[C@H](CCC(N)=O)NC(=O)[C@H](CCCCN)NC(=O)[C@H](CCCNC(=N)N)NC(=O)[C@@H]1CCCN1C(=O)[C@H](CCC(=O)O)NC(=O)[C@@H](NC(=O)[C@H](C)N)[C@@H](C)O)[C@@H](C)O)C(=O)N[C@@H](Cc1ccccc1)C(=O)N[C@@H](Cc1c[nH]c2ccccc12)C(=O)N[C@H](C(=O)N[C@@H](CC(=O)O)C(=O)N[C@@H](C)C(=O)N1CCC[C@H]1C(=O)NCC(=O)NCCOCCOCCOCCOCCOCCOCCOCCOCCOCCOCCOCCOCCC(=O)N[C@@H](CS)C(N)=O)[C@@H](C)O — selectivity ratio (H1650 lung adenocarcinoma; cell binding, phage binding, refers to: output/input phage; 10 min, 37 °C; baseline: control phage): 0.34 ± 0.071
CC(C)(C)C(=O)OCOP(=O)(OCOC(=O)C(C)(C)C)C1CCCN(O)C1=O (stereo not shown) — CC50 (SR): > 100 µM
CC(=O)NCSC[C@H](NC(=O)[C@@H]1CCCN1C(=O)[C@H](C)NC(=O)[C@@H](NC(=O)CNC(=O)[C@@H](NC(=O)[C@H](Cc1c[nH]c2ccccc12)NC(=O)[C@H](C)NC(=O)CNC(=O)[C@H](CO)NC(=O)[C@H](C)NC(=O)[C@@H]1CCCN1C(=O)[C@H](Cc1c[nH]c2ccccc12)NC(=O)[C@H](C)NC(=O)[C@H](C)NC(=O)[C@@H](N)Cc1ccc(O)cc1)[C@@H](C)O)[C@@H](C)O)C(=O)N[C@@H](CO)C(=O)N[C@@H](C)C(=O)NCC(=O)N[C@H](C(=O)NCCOCCOCCOCCOCCOCCOCCOCCOCCOCCOCCOCCOCCC(=O)N[C@@H](CS)C(N)=O)[C@@H](C)O — selectivity ratio (H661 lung large cell carcinoma; cell binding, phage binding, refers to: output/input phage; 10 min, 37 °C; baseline: control phage): 2.8 ± 2
O=C(C[Se]C(=O)c1ccccc1Nc1cccc(C(F)(F)F)c1)Nc1cccc(C(F)(F)F)c1 — CC50 (NCI60 renal subpanel; cytotoxicity, inhibitor; five-dose): 8.66 µM
COc1ccccc1-c1ccncc1C(=O)Nc1nnc(OCc2ccc(Cl)cc2)s1 — colony survival (RPE-1 TP53-/- BRCA1-/-; 2 µM, average of 2 runs; baseline: untreated): 41.5%
C=CCN1C(=O)C(CC=C)(C(=O)OCC)Oc2cc(F)ccc21 (stereo not shown) — inhibition (HEK293T; cytotoxicity, CCK-8; 0.78 µM, 72 h): 0%
O=C(O)c1ccc(-c2nc(-c3ccccc3Cl)c3sccn23)cc1 — CD41a fluorescence intensity (human CD34+ stem cells; megakaryocyte differentiation, flow cytometry; 10 µM, day 7, compound-negative subset, with: thrombopoietin; higher = more expression): 207000 a.u. and 187000 a.u. and 113000 a.u. and 121000 a.u. and 182000 a.u. and 122000 a.u. and 212000 a.u.

For quick reference, copied from above:
O=C(C[Se]C(=O)c1ccccc1Nc1cccc(C(F)(F)F)c1)Nc1cccc(C(F)(F)F)c1 — CC50 (NCI60 renal subpanel; cytotoxicity, inhibitor; five-dose): 8.66 µM
[Cl-].[Cl-].[Ru+2].c1ccc(-c2ccccn2)nc1.c1ccc(-c2ccccn2)nc1.c1ccc2cc3nc4c5cccnc5c5ncccc5c4nc3cc2c1 — phototoxicity index (SK-MEL-28; 1% O2, with: blue light 453 nm, 100 J/cm2; baseline: dark over light EC50): 1
CCOC(=O)C1(Cc2ccccc2)Oc2cc(F)ccc2N(Cc2ccccc2)C1=O (stereo not shown) — inhibition (HEK293T; cytotoxicity, CCK-8; 6.25 µM, 72 h): 0.17 ± 0.32%
